Results pooled from the literature.
Protocols differ between the studies behind these lines. ± gives the spread as reported.
Target: Albumin (ALB, Homo sapiens, UniProt P02768)

SMILES	assay	test system	setting	endpoint	value
O=S(=O)(c1ccc(F)cc1)N1CCNCC1COc1ccc2c(c1)OCO2 (stereo not drawn)	HPLC retention on immobilised albumin	human serum albumin column	–	fraction unbound	~0.1
O=C1CCC(c2ccc(OCC(=O)OCCCCc3cn(CCCCCCN4CCc5c(c6ccccc6n5Cc5ccc(C(=O)NO)cc5)C4)nn3)cc2)C(=O)N1 (stereo not drawn)	HPLC on immobilised albumin column	–	–	fraction unbound	0.033
O=C1NC(CF)(CF)C(=O)N1c1ccc(F)c(C(F)(F)F)c1	–	–	–	unbound fraction	0.271
C=C[C@@H]1C[C@]1(NC(=O)[C@@H]1C[C@@H]2CN1C(=O)[C@H](C(C)(C)C)NC(=O)O[C@@H]1C[C@H]1CCCCCc1nc3ccc(OC)cc3nc1O2)C(=O)NS(=O)(=O)C1CC1	rapid equilibrium dialysis	4.5% albumin solution	–	unbound fraction	0.0122
CC1(C)NC(=O)N(c2cc(C(F)(F)F)c(F)cc2C#N)C1=O	–	–	–	unbound fraction	0.758
COc1cc(-c2[o+]c3cc(O)cc(O)c3cc2O[C@@H]2O[C@H](CO)[C@@H](O)[C@H](O)[C@H]2O)ccc1O	binding, visible absorption spectroscopy	–	pH 7, added: HSA 200 µM	Kd	17.4 ± 3.75 µM
Cc1cc(N2C(=O)NC(C)(C)C2=O)cc(C(F)(F)F)n1	–	–	–	unbound fraction	0.795
OC[C@H]1O[C@@H](Oc2cc3c(O)cc(O)cc3[o+]c2-c2cc(O)c(O)c(O)c2)[C@H](O)[C@@H](O)[C@@H]1O	visible absorption spectroscopy	acetonitrile–HSA system	50 µM, pH 7, added: HSA 200 µM	λmax	> 630 nm
Nc1cccc2c1CN(C1CCC(=O)NC1=O)C2=O (stereo not drawn)	equilibrium dialysis	human serum albumin 50 mg/mL	6 h, 37 °C	fraction unbound	0.938
O=C(Nc1ccc(F)cc1)N1CCNCC1COc1ccc2ccccc2c1 (stereo not drawn)	HPLC retention on immobilised albumin	human serum albumin column	–	fraction unbound	< 0.02
Cc1cc(NC(=O)Nc2ccc3c(c2)OC(F)(F)O3)cc(C(F)(F)F)n1	HSA column HPLC	–	–	unbound fraction	0.015
Cc1cc(C)c(CNC(=O)c2cc(Cl)c3c(c2C)O[C@@](C)([C@H]2CC[C@H](N(C)C)CC2)O3)c(=O)[nH]1	ultracentrifugation	4% human serum albumin solution	5000 ng/mL, 160 min	unbound fraction	0.64
OC[C@H]1O[C@@H](Oc2cc3c(O)cc(O)cc3[o+]c2-c2ccc(O)c(O)c2)[C@H](O)[C@@H](O)[C@@H]1O	binding, fluorescence quenching	–	pH 7, 40 °C, HSA 2 µM	Kd	30.6 ± 5.32 µM
CCc1ccc(CCOc2ccc(CC3SC(=O)NC3=O)cc2)nc1 (stereo not drawn)	equilibrium dialysis	human serum albumin 50 mg/mL	6 h, 37 °C	fraction unbound	0.002
COc1cc(-c2[o+]c3cc(O)cc(O)c3cc2O[C@@H]2O[C@H](CO)[C@@H](O)[C@H](O)[C@H]2O)cc(O)c1O	binding, visible absorption spectroscopy	–	pH 7, added: HSA 200 µM	Kd	12.6 ± 1.11 µM
CN(CCCCCCNC(=O)CNc1cccc2c1C(=O)N(C1CCC(=O)NC1=O)C2=O)Cc1cn(Cc2ccc(C(=O)NO)cc2)c2ccccc12 (stereo not drawn)	HPLC on immobilised albumin column	–	–	fraction unbound	0.03
CC1(C)NC(=O)N(c2ccc(F)c(Br)c2)C1=O	–	–	–	unbound fraction	0.457
Cc1c(C)c2c(c(C)c1O)CCC(C)(COc1ccc(CC3SC(=O)NC3=O)cc1)O2 (stereo not drawn)	equilibrium dialysis	human serum albumin 50 mg/mL	6 h, 37 °C	fraction unbound	0.027
CC1(C(F)F)NC(=O)N(c2ccc(F)c(C(F)(F)F)c2)C1=O (stereo not drawn)	–	human plasma	–	fraction unbound	0.274
OC[C@H]1O[C@@H](Oc2cc3c(O)cc(O)cc3[o+]c2-c2ccc(O)cc2)[C@H](O)[C@@H](O)[C@@H]1O	binding, visible absorption spectroscopy	–	pH 7, added: HSA 200 µM	Kd	17.9 ± 3.53 µM
CC1(C)NC(=O)N(c2ccc3c(c2)OC(F)(F)O3)C1=O	–	–	–	unbound fraction	0.575
O=C(COc1ccc(C2CCC(=O)NC2=O)cc1)NCCCCCCN1CCc2c(c3ccccc3n2Cc2ccc(C(=O)NO)cc2)C1 (stereo not drawn)	HPLC on immobilised albumin column	–	–	fraction unbound	0.037
Nc1cccc2c1C(=O)N(C1CCC(=O)NC1=O)C2=O (stereo not drawn)	equilibrium dialysis	human serum albumin 50 mg/mL	6 h, 37 °C	fraction unbound	0.704
CC1(C)NC(=O)N(c2cccc(C(F)(F)F)n2)C1=O	–	–	–	unbound fraction	0.904

Repeated from above:
SMILES	assay	test system	setting	endpoint	value
OC[C@H]1O[C@@H](Oc2cc3c(O)cc(O)cc3[o+]c2-c2ccc(O)c(O)c2)[C@H](O)[C@@H](O)[C@@H]1O	binding, fluorescence quenching	–	pH 7, 40 °C, HSA 2 µM	Kd	30.6 ± 5.32 µM
CCc1ccc(CCOc2ccc(CC3SC(=O)NC3=O)cc2)nc1 (stereo not drawn)	equilibrium dialysis	human serum albumin 50 mg/mL	6 h, 37 °C	fraction unbound	0.002
COc1cc(-c2[o+]c3cc(O)cc(O)c3cc2O[C@@H]2O[C@H](CO)[C@@H](O)[C@H](O)[C@H]2O)cc(O)c1O	binding, visible absorption spectroscopy	–	pH 7, added: HSA 200 µM	Kd	12.6 ± 1.11 µM
